{"data": "Measurements gathered from unrelated publications", "note": "Protocols differ between the studies behind these lines. ± gives the spread as reported."}
{"Structure (SMILES)": "N=C(N)NCCC[C@@H]1NC(=O)[C@H](CCCCNC(=O)CCOCCOCCOCCOCCNC(=O)CC[C@H](NC(=O)CCOCCOCCOCCOCCNC(=O)CC[C@H](NC(=O)CN2CCN(CC(=O)O)CCN(CC(=O)O)CCN(CC(=O)O)CC2)C(=O)NCCOCCOCCOCCOCCC(=O)N[C@@H](CCC(=O)NCCOCCOCCOCCOCCC(=O)NCCCC[C@@H]2NC(=O)[C@@H](Cc3ccccc3)NC(=O)[C@H](CC(=O)O)NC(=O)CNC(=O)[C@H](CCCNC(=N)N)NC2=O)C(=O)NCCOCCOCCOCCOCCC(=O)NCCCC[C@@H]2NC(=O)[C@@H](Cc3ccccc3)NC(=O)[C@H](CC(=O)O)NC(=O)CNC(=O)[C@H](CCCNC(=N)N)NC2=O)C(=O)NCCOCCOCCOCCOCCC(=O)NCCCC[C@@H]2NC(=O)[C@@H](Cc3ccccc3)NC(=O)[C@H](CC(=O)O)NC(=O)CNC(=O)[C@H](CCCNC(=N)N)NC2=O)NC(=O)[C@@H](Cc2ccccc2)NC(=O)[C@H](CC(=O)O)NC(=O)CNC1=O [indium-111 labelled]", "system": "athymic nude mouse, U-87 MG xenograft, tumour", "quantity": "washout half-life", "value": "~40 h"}
{"Structure (SMILES)": "CCCC[C@H](NC(=O)CNC(=O)[C@H](CO)NC(=O)CNC(=O)c1ccc(NN)nc1)C(=O)N[C@H]1CC(=O)NCCCC[C@@H](C(N)=O)NC(=O)[C@H](Cc2c[nH]c3ccccc23)NC(=O)[C@H](CCCNC(=N)N)NC(=O)[C@@H](Cc2ccccc2)NC(=O)[C@H](Cc2c[nH]cn2)NC1=O [technetium-99m labelled]", "system": "C57 mouse, B16/F1 melanoma", "conditions": "2 h", "scale": "baseline: tumour over blood", "quantity": "uptake ratio", "value": 98}
{"Structure (SMILES)": "CC(C)C[C@@H]1NC(=O)[C@H](C(C)C)NC(=O)[C@H](CO)NC(=O)CNC(=O)CNC(=O)[C@H](CCCNC(=N)N)NC(=O)[C@@H]2CCCN2C(=O)[C@@H](NC(=O)CC[C@H](NC(=O)c2ccc(N(C)Cc3cnc4nc(N)nc(N)c4n3)cc2)C(=O)O)C(C)(C)SSC[C@@H](C(=O)O)NC(=O)CNC(=O)[C@H]([C@@H](C)O)NC(=O)[C@H](C(C)C)NC1=O", "test": "pH-rate profile inflection", "conditions": "70 °C", "quantity": "pKa amino group", "value": 8.9}
{"Structure (SMILES)": "CCCC[C@H](NC(=O)CNC(=O)CNC(=O)c1ccc(NN)nc1)C(=O)N[C@H]1CC(=O)NCCCC[C@@H](C(N)=O)NC(=O)[C@H](Cc2c[nH]c3ccccc23)NC(=O)[C@H](CCCNC(=N)N)NC(=O)[C@@H](Cc2ccccc2)NC(=O)[C@H](Cc2c[nH]cn2)NC1=O [technetium-99m labelled]", "system": "C57 mouse, B16/F1 melanoma, urine", "conditions": "intravenous, 0.5 h", "quantity": "uptake", "value": "73.1 ± 2.72 %ID"}
{"Structure (SMILES)": "CSCC[C@H](NC(=O)[C@H](CC(C)C)NC(=O)[C@H](Cc1c[nH]cn1)NC(=O)CNC(=O)[C@@H](NC(=O)[C@H](C)NC(=O)[C@H](Cc1c[nH]c2ccccc12)NC(=O)[C@H](CCC(N)=O)NC(=O)CCCCCNC(=O)CN1CCN(CC(=O)O)CCN(CC(=O)O)CC1)C(C)C)C(N)=O [gallium-68 labelled]", "test": "microPET imaging", "system": "mouse PC-3 xenograft, PC-3 tumour", "conditions": "intravenous, 3.7 MBq, 30 min", "quantity": "maximum tumour uptake", "value": "5.14 ± 1.15 %ID/g"}
{"Structure (SMILES)": "CSCC[C@H](NC(=O)[C@H](CC(C)C)NC(=O)[C@H](Cc1c[nH]cn1)NC(=O)CNC(=O)[C@@H](NC(=O)[C@H](C)NC(=O)[C@H](Cc1c[nH]c2ccccc12)NC(=O)[C@H](CCC(N)=O)NC(=O)CCCCCNC(=O)CNC(=O)CNC(=O)CNC(=O)CSC(C)=O)C(C)C)C(N)=O [technetium-99m labelled]", "system": "nude mouse, PC-3 xenograft, stomach", "conditions": "90 min, with: excess unlabelled conjugate", "quantity": "tissue uptake", "value": "0.31 ± 0.06 %ID/g"}
{"Structure (SMILES)": "N=C(N)NCCC[C@@H]1NC(=O)[C@H](CCCCNC(=O)CNC(=O)CNC(=O)CNC(=O)CC[C@H](NC(=O)CCOCCOCCOCCOCCNC(=O)CC[C@H](NC(=O)CN2CCN(CC(=O)O)CCN(CC(=O)O)CCN(CC(=O)O)CC2)C(=O)NCCOCCOCCOCCOCCC(=O)N[C@@H](CCC(=O)NCC(=O)NCC(=O)NCC(=O)NCCCC[C@@H]2NC(=O)[C@@H](Cc3ccccc3)NC(=O)[C@H](CC(=O)O)NC(=O)CNC(=O)[C@H](CCCNC(=N)N)NC2=O)C(=O)NCC(=O)NCC(=O)NCC(=O)NCCCC[C@@H]2NC(=O)[C@@H](Cc3ccccc3)NC(=O)[C@H](CC(=O)O)NC(=O)CNC(=O)[C@H](CCCNC(=N)N)NC2=O)C(=O)NCC(=O)NCC(=O)NCC(=O)NCCCC[C@@H]2NC(=O)[C@@H](Cc3ccccc3)NC(=O)[C@H](CC(=O)O)NC(=O)CNC(=O)[C@H](CCCNC(=N)N)NC2=O)NC(=O)[C@@H](Cc2ccccc2)NC(=O)[C@H](CC(=O)O)NC(=O)CNC1=O [indium-111 labelled]", "system": "female athymic nude mouse", "conditions": "intravenous, 3 µCi, 72 h, U-87 MG glioma xenograft", "scale": "baseline: tumour over muscle", "quantity": "tumour to muscle ratio", "value": "10.2 ± 2.72"}
{"Structure (SMILES)": "CCCC[C@H](NC(=O)CCCCCCCNC(=O)c1ccc(NN)nc1)C(=O)N[C@H]1CC(=O)NCCCC[C@@H](C(N)=O)NC(=O)[C@H](Cc2c[nH]c3ccccc23)NC(=O)[C@H](CCCNC(=N)N)NC(=O)[C@@H](Cc2ccccc2)NC(=O)[C@H](Cc2c[nH]cn2)NC1=O [technetium-99m labelled]", "system": "C57 mice, B16/F1 melanoma, urine", "conditions": "concentration not given, 2 h, with: 6.07 nmol NDP-MSH", "quantity": "biodistribution", "value": "91.29 ± 0.7 %ID"}
{"Structure (SMILES)": "N=C(N)NCCC[C@@H]1NC(=O)[C@H](CCCCNC(=O)CC[C@H](NC(=O)CCOCCOCCOCCOCCNC(=O)CC[C@H](NC(=O)CN2CCN(CC(=O)O)CCN(CC(=O)O)CCN(CC(=O)O)CC2)C(=O)NCCOCCOCCOCCOCCC(=O)N[C@@H](CCC(=O)NCCCC[C@@H]2NC(=O)[C@@H](Cc3ccccc3)NC(=O)[C@H](CC(=O)O)NC(=O)CNC(=O)[C@H](CCCNC(=N)N)NC2=O)C(=O)NCCCC[C@@H]2NC(=O)[C@@H](Cc3ccccc3)NC(=O)[C@H](CC(=O)O)NC(=O)CNC(=O)[C@H](CCCNC(=N)N)NC2=O)C(=O)NCCCC[C@@H]2NC(=O)[C@@H](Cc3ccccc3)NC(=O)[C@H](CC(=O)O)NC(=O)CNC(=O)[C@H](CCCNC(=N)N)NC2=O)NC(=O)[C@@H](Cc2ccccc2)NC(=O)[C@H](CC(=O)O)NC(=O)CNC1=O [indium-111 labelled]", "system": "female athymic nude mouse", "conditions": "intravenous, 3 µCi, 4 h, U-87 MG glioma xenograft", "scale": "baseline: tumour over muscle", "quantity": "tumour to muscle ratio", "value": "11.8 ± 7.36"}
{"Structure (SMILES)": "CC(C)C[C@H](NC(=O)[C@@H]1CCCN1C(=O)[C@H](CCCCN)NC(=O)[C@@H](N)CO)C(=O)N1CCC[C@H]1C(=O)N[C@@H](CCC(=O)O)C(=O)N[C@H](C(=O)N[C@H](C(=O)N[C@@H](CC(=O)O)C(=O)N[C@@H](CCC(=O)O)C(=O)N[C@@H](Cc1ccc(O)cc1)C(=O)N[C@@H](Cc1cn(CCOCCOCCOCCNC(=O)CCc2ccc(O)c(CN(CCN(CC(=O)O)Cc3cc(CCC(=O)NCCCC[C@H](NC(=O)N[C@@H](CCC(=O)O)C(=O)O)C(=O)O)ccc3O)CC(=O)O)c2)nn1)C(=O)O)[C@@H](C)O)C(C)C [gallium-68 labelled]", "system": "NMRI nu/nu mice, LNCaP tumour, blood", "conditions": "135.34 nmol/kg, low molar activity", "quantity": "standardized uptake value", "value": "0.12 g/g"}
{"Structure (SMILES)": "N=C(N)NCCC[C@@H]1NC(=O)[C@H](CCCCNC(=O)CCOCCOCCOCCOCCNC(=O)CN2CCN(CC(=O)O)CCN(CC(=O)O)CCN(CC(=O)O)CC2)NC(=O)[C@@H](Cc2ccccc2)NC(=O)[C@H](CC(=O)O)NC(=O)CNC1=O [indium-111 labelled]", "system": "athymic nude mice, female, U-87 MG glioma xenograft, tumour and brain", "conditions": "intravenous, 0.5 h", "scale": "baseline: tumour over brain", "quantity": "tumour to tissue ratio", "value": "13.8 ± 1.72"}
{"Structure (SMILES)": "N=C(N)NCCC[C@@H]1NC(=O)[C@H](CCCCNC(=O)c2ccc(CNC34CNCCNCC(NCc5ccc(C(=O)NCCCC[C@@H]6NC(=O)[C@@H](Cc7ccc(O)cc7)NC(=O)[C@H](CC(=O)O)NC(=O)CNC(=O)[C@H](CCCNC(=N)N)NC6=O)cc5)(CNCCNC3)CNCCNC4)cc2)NC(=O)[C@@H](Cc2ccc(O)cc2)NC(=O)[C@H](CC(=O)O)NC(=O)CNC1=O [copper-64 labelled]", "test": "radio-HPLC", "system": "PBS", "conditions": "up to 20 h", "quantity": "free 64Cu", "value": "not detected"}
{"Structure (SMILES)": "CC1(C)C(/C=C/C=C/C=C2/N(CCCCCC(=O)NCCCC[C@@H]3NC(=O)[C@@H](Cc4ccc(O)cc4)NC(=O)[C@H](CC(=O)O)NC(=O)CNC(=O)[C@H](CCCNC(=N)N)NC3=O)c3ccccc3C2(C)C)=[N+](CCCCn2nnc3c2-c2ccccc2CN(C(=O)CCC(=O)NCCNC(=O)CN(CCN(CC(=O)O)CC(=O)O)CCN(CC(=O)O)CC(=O)O)c2ccccc2-3)c2ccc(S(=O)(=O)[O-])cc21", "system": "serum", "quantity": "unbound fraction", "value": 0.56}
{"note": "For quick reference, copied from above:"}
{"Structure (SMILES)": "CCCC[C@H](NC(=O)CCCCCCCNC(=O)c1ccc(NN)nc1)C(=O)N[C@H]1CC(=O)NCCCC[C@@H](C(N)=O)NC(=O)[C@H](Cc2c[nH]c3ccccc23)NC(=O)[C@H](CCCNC(=N)N)NC(=O)[C@@H](Cc2ccccc2)NC(=O)[C@H](Cc2c[nH]cn2)NC1=O [technetium-99m labelled]", "system": "C57 mice, B16/F1 melanoma, urine", "conditions": "concentration not given, 2 h, with: 6.07 nmol NDP-MSH", "quantity": "biodistribution", "value": "91.29 ± 0.7 %ID"}
